Measured values pooled from the literature.
± marks the error that the study gave.

| Substance | organism | test | system | conditions | IC50 |
| --- | --- | --- | --- | --- | --- |
| O=C1CSC(=S)N1/N=C/c1cn(Cc2cccc(Cl)c2)c2ccc([N+](=O)[O-])cc12 | Leishmania major | parasite growth, resazurin | THP-1 | 24 h, intracellular, amastigote | > 10 µM |
| COc1ccccc1NC(=O)c1ccccc1Oc1ccc([N+](=O)[O-])cc1 | Human immunodeficiency virus 1 | viral replication | MT4 | 7 days | 15.2 µM |
| O=c1[nH]c2c([N+](=O)[O-])cccc2cc1-c1ccccc1CO | Trypanosoma brucei | parasite growth, resazurin |  | 74 h, trypomastigote | 7.2 µM |
| COc1ccccc1NC(=O)c1ccccc1Sc1ccccc1 | Human immunodeficiency virus 1 | viral replication | MT4 | 7 days | > 100 µM |
| C#CCn1cc(/C=C2\SC(=S)NC2=O)c2cc([N+](=O)[O-])ccc21 | Leishmania major | parasite growth, resazurin | THP-1 | 72 h, intracellular, amastigote | > 10 µM |
| CCN(CC)Cc1ccc2cc(COC(=O)Nc3ccc(C(=O)NO)cc3)ccc2c1 | Lucilia cuprina | larval weight gain | LS strain, larvae on impregnated cotton wool | 24 h | 477 µg |
| 5′-deoxy-5′-Pro-DADMe-ImmA | Campylobacter jejuni | colony formation | Mueller-Hinton agar | 6 days | 3.1 ± 0.7 µM |
| Ac-LCDCPNGPWAWVPAFCQAVG-OH (cysteine pairing not given here) (N-acetyl) | HIV-1 NL4-3 | viral replication | CEMx174 SEAP reporter | 3 d | 19 ± 6.83 µM |
| O=C1CSC(=S)N1/N=C/c1c[nH]c2ccc([N+](=O)[O-])cc12 | Leishmania major | parasite growth, resazurin | THP-1 | 72 h, intracellular, amastigote | > 10 µM |
| CS(=O)(=O)c1ccc(-c2cnc(N)c(-c3ccc(C(F)(F)F)nc3)c2)cc1 | Plasmodium cynomolgi | hypnozoite (small EEF) growth | primary rhesus hepatocytes | day 5, compound added at 120 h | > 10 µM |
| O=C(CCCCCCC(=O)Nc1ccc([C@H]2O[C@@H](CSc3nc(-c4ccccc4)c(-c4ccccc4)o3)C[C@@H](c3ccc(CO)cc3)O2)cc1)NO | Lucilia cuprina | larval weight gain | LS strain, larvae on impregnated cotton wool | 24 h | > 1000 µg |
| O=C(O)c1ccc(-c2cc3cccc([N+](=O)[O-])c3[nH]c2=O)cc1 | Trypanosoma brucei | parasite growth, resazurin |  | 74 h, trypomastigote | 1.5 µM |
| Cn1cc(CNCC2CCN(c3ncc(C(=O)NO)cn3)CC2)c2ccccc21 | Lucilia cuprina | larval weight gain | LS strain, larvae on impregnated cotton wool | 24 h | 100 µg |
| O=C1NC(=S)S/C1=C\c1c[nH]c2ccc([N+](=O)[O-])cc12 | Leishmania major | parasite growth, resazurin | THP-1 | 72 h, intracellular, amastigote | 0.57 µM |
| O=[N+]([O-])c1ccc(/C=N/N=C/c2ccccc2)s1 | Leishmania major | parasite growth |  | intracellular, amastigote | > 7 µM |
| O=C1NC(=S)S/C1=C\c1cn(Cc2ccccc2)c2ccc([N+](=O)[O-])cc12 | Leishmania major | parasite growth, resazurin | THP-1 | 72 h, intracellular, amastigote | 0.51 µM |
| O=c1c(O)c(-c2cc(O)c(O)c(O)c2)oc2cc(O)cc(O)c12 | human alphaherpesvirus 2 | viral replication | HeLa, 333 | 24 h | 2.1 ± 0.3 µM |
| O=Cc1c[nH]c2ccc([N+](=O)[O-])cc12 | Leishmania major | parasite growth, resazurin | THP-1 | 24 h, intracellular, amastigote | > 10 µM |
| O=C(Nc1ccccc1O)c1ccccc1Sc1ccc([N+](=O)[O-])cc1 | Human immunodeficiency virus 1 | viral replication | MT4 | 7 days | 50 µM |

Some of these lines once more:
| Substance | organism | test | system | conditions | IC50 |
| --- | --- | --- | --- | --- | --- |
| Ac-LCDCPNGPWAWVPAFCQAVG-OH (cysteine pairing not given here) (N-acetyl) | HIV-1 NL4-3 | viral replication | CEMx174 SEAP reporter | 3 d | 19 ± 6.83 µM |
